Experimental data pooled from the literature.
Compare with care: the assays were run in different laboratories. Values joined by “and” are separate records of one study, mostly repeats; a detail may differ. ± marks the error that the study gave.

With `O=c1oc2c(O)c(O)cc3c(=O)oc4c(O)c(O)cc1c4c23` the plasma concentration was 0.138 µM (human plasma; mean, both sexes).
`CCOc1c([C@H](C)n2nc(C)c3c(N)ncnc32)cc(Cl)c(F)c1[C@@H]1CNC(=O)C1` — result for “amount excreted in urine (Ae)”: 4490 ± 1840 nmol (refers to: unchanged compound; Japanese patients, urine; oral, dose not given, 0-8 h, cycle 1 day 15).
`O=C(COc1ccc(Cl)cc1)NC12CC(c3nnc([C@H]4C[C@@H](OC(F)(F)F)C4)o3)(C1)C2`: “postural dizziness participants” 14.3% (human both sexes; oral, 200 mg once daily, 14 days).
`CC(C)n1c(/C=C/C(O)CC(O)CC(=O)O)c(-c2ccc(F)cc2)c2ccccc21` (centres unmarked) has a confluence of 0.83 ± 0.03 (COS-7; 6 µM, 24 h, 0.1% DMSO, unit not given; reference: vehicle control).
For `COc1ccc2c3c([nH]c2c1)[C@H](CC(C)C)N1C(=O)[C@H](CC(=O)NC(C)C)NC(=O)[C@@H]1C3`, the serum concentration was 34.9 µM and 41.9 µM and 29 µM (wild-type mouse, male, serum; oral, 100 mg/kg, 2 h).
Under “median plasma concentration”, `Cc1c2oc3c(C)ccc(C(=O)N[C@@H]4C(=O)N[C@H](C(C)C)C(=O)N5CCC[C@H]5C(=O)N(C)CC(=O)N(C)[C@@H](C(C)C)C(=O)O[C@@H]4C)c3nc-2c(C(=O)N[C@@H]2C(=O)N[C@H](C(C)C)C(=O)N3CCC[C@H]3C(=O)N(C)CC(=O)N(C)[C@@H](C(C)C)C(=O)O[C@@H]2C)c(N)c1=O` is recorded as 3.7 µg/L (LC-MS; children with cancer, plasma; dose not given, 4 h).
`CNC(=O)c1ccc(-c2cnc3ncc(Cc4ccc5ncccc5c4)n3n2)cc1F`: “adverse event incidence” 0% (phase 1 clinical trial, refers to: upper abdominal pain; HCC expansion cohort; oral, 600 mg twice daily, grade 3 or 4).
Under “participants with grade ≥ 3 TEAE”, `CCn1c(=O)c(-c2cc(NC(=O)Nc3ccccc3)c(F)cc2Br)cc2cnc(NC)cc21` is recorded as 0% (refers to: accidental overdose; human, mild hepatic impairment; oral, 50 mg single dose).
`CCc1cc(C(=O)NC)c2nccc(N3CCc4c(cc(Cn5ccnc5)cc4-c4cn(C)nc4C(F)(F)F)C3=O)c2c1` has a blood HGB of 136 ± 2.83 g/L (Sprague Dawley rats; oral, 50 mg/kg once daily, 7 days).
`N[C@@H](Cc1ccc(O)c(O)c1)C(=O)O`: “duration of peak dyskinesia” 2 h (MPTP-lesioned marmoset, dyskinetic; 20 mg/kg).
`CC(=O)c1c(C)cc2cc(O)cc(O[C@@H]3O[C@H](CO)[C@@H](O)[C@H](O)[C@H]3O)c2c1O` has a cell viability of 104 ± 6.22% (HepaRG co-cultured with HK-2; MTT; 33.33 µM, 24 h; reference: untreated control).
`O=C(N[C@H](CO)[C@H](O)c1ccc([N+](=O)[O-])cc1)C(Cl)Cl` has an amount permeated of 4.28 nmol (starch gel membrane permeability; Gram-negative envelope surrogate; 200 µM, 60 min, pH 7.4).
`CCOc1c([C@H](C)n2nc(C)c3c(N)ncnc32)cc(Cl)c(F)c1[C@@H]1CNC(=O)C1`: “AUC(0-last) geometric mean” 24.7 µM·h (patients, monotherapy; oral, 30 mg once daily, cycle 1 day 15).
`O=C(O)CCC(=O)O.[2H]C([2H])([2H])Oc1cc(C)c2[nH]ccc2c1CN1CC[C@@H](C2CC2)C[C@H]1c1ccc(C(=O)O)cc1` — result for “subjects with TEAE Eczema”: 0% (multiple ascending dose; healthy Chinese subjects; 200 mg once daily).
`CCCCOc1nc(N)c2c(n1)N(Cc1cccc(CN3CCCC3)c1)CC(=O)N2` — result for “drug-related TEAE incidence”: 0% (refers to: Hallucinations; human; oral, 2 mg).
With `Cc1nc2ccc(OCc3ccc(C(F)(F)F)cc3)cc2[nH]1` the tissue/plasma ratio was 4.5 ± 0.6 (male Balb/c mice, heart; oral, 10 mg/kg, 4 h; reference: tissue over plasma).
`CCCCOC(=O)N1CCN(C(=O)[C@H](CP(=O)(O)O)NC(=O)c2cc(N3CC[C@H](OC)C3)nc(-c3ccccc3)n2)CC1`: “change from baseline” -0.5 ± 6 g/L (refers to: haemoglobin; human, blood; 16 mg, 24 h post-dose).
With `CCCCCCCCC(=O)c1cc(O)c(O)c(O)c1` the confluence was 0.83 ± 0.07 (COS-7; 10 µM, 24 h, 0.1% DMSO, unit not given; reference: vehicle control).
The apparent clearance of `Cc1nc(-c2cnc(NC(C)C)n(C)c2=O)ccc1Oc1ccnc(-c2cnn(C)c2)c1` is reported as 19.3 mL/min/kg (Beagle dog, male, plasma; oral, 30 mg/kg, crossover study, mean).
For `COc1cc(Nc2ncc3c(n2)-c2ccc(Cl)cc2C(c2c(F)cccc2OC)=NC3)ccc1C(=O)O`, “patients with adverse event” read 21% (refers to: increased ALT, grade 1; cancer patients, phase 1/2; oral, dose not given, with: pembrolizumab).
For `O=c1c(O)c(-c2ccc(O)cc2O)oc2cc(O)cc(O)c12`, the plasma concentration was 0.0713 µM (human plasma; median, both sexes).
Under “patients with AST increased”, `O=C(Nc1nc2cccc(-c3ccc(CN4CCS(=O)(=O)CC4)cc3)n2n1)C1CC1` is recorded as 0% (rheumatoid arthritis patients; oral, 100 mg twice daily, 4 weeks, regardless of relatedness).
`CN(C)CCCNC(=O)/C(=C/CCCCC(=O)NO)COc1cccc2ccccc12` has an MRT(0-inf) of 6.79 h (human; iv, 250 mg/m2, day 1, single dose, mean).

A few entries again:
`CCCCOC(=O)N1CCN(C(=O)[C@H](CP(=O)(O)O)NC(=O)c2cc(N3CC[C@H](OC)C3)nc(-c3ccccc3)n2)CC1`: “change from baseline” -0.5 ± 6 g/L (refers to: haemoglobin; human, blood; 16 mg, 24 h post-dose).
`O=C(N[C@H](CO)[C@H](O)c1ccc([N+](=O)[O-])cc1)C(Cl)Cl` has an amount permeated of 4.28 nmol (starch gel membrane permeability; Gram-negative envelope surrogate; 200 µM, 60 min, pH 7.4).
The apparent clearance of `Cc1nc(-c2cnc(NC(C)C)n(C)c2=O)ccc1Oc1ccnc(-c2cnn(C)c2)c1` is reported as 19.3 mL/min/kg (Beagle dog, male, plasma; oral, 30 mg/kg, crossover study, mean).
`CC(C)n1c(/C=C/C(O)CC(O)CC(=O)O)c(-c2ccc(F)cc2)c2ccccc21` (centres unmarked) has a confluence of 0.83 ± 0.03 (COS-7; 6 µM, 24 h, 0.1% DMSO, unit not given; reference: vehicle control).
